Measured values pooled from the literature.
“And” joins repeats or separate records; there may be more than shown.
CDK4 with cyclin D2: Cyclin-dependent kinase 4, with cyclin D2 (CDK4, Homo sapiens, UniProt P11802)
CDK4 with cyclin D3: Cyclin-dependent kinase 4, with cyclin D3 (CDK4, Homo sapiens, UniProt P11802)
CDK4 with cyclin D1: Cyclin-dependent kinase 4, with cyclin D1 (CDK4, Homo sapiens, UniProt P11802)
CDK4 with cyclin D: Cyclin-dependent kinase 4, with cyclin D (CDK4, Homo sapiens, UniProt P11802)

SMILES	target	assay	test system	setting	scale	endpoint	value
Nc1ncc(-c2cc(-c3cnn(CC(F)(F)F)c3)ncc2F)nc1C(=O)NC1CNCC(F)C1 (stereo not drawn)	CDK4 with cyclin D2	enzyme activity		1 µM	reference: DMSO control	remaining activity	96.8%
CNC(=O)C[C@H](Cc1ccc(C#N)cc1)NC(=O)c1cc(-c2ccc(CN[C@H](C)c3ccc(C)cc3)o2)ccc1Cl	CDK4 with cyclin D3	enzyme activity, inhibitor		1 µM		activity vs control	101%
NC(=O)C[C@H]1CCc2sc3ncnc(O[C@H]4CC[C@H](N5CCOCC5)CC4)c3c21	CDK4 with cyclin D1	enzyme activity, inhibitor		10 µM		inhibition	5%
CCn1cc(C(=O)O)c(=O)c2c(N)c(F)c(NC3CCCCC3)cc21	CDK4 with cyclin D1	kinase activity		0.1 µM, added: ATP at Km		inhibition	12.2%
O=C(Cc1ccc(OCc2ccccc2)cc1)NC1(C(=O)O)CCN(C(=O)c2ccc(-c3cccc(Cl)c3)cc2)CC1	CDK4 with cyclin D3	enzyme activity, inhibitor		10 µM		activity vs control	94%
C=CC(=O)Nc1cccc(-c2cnc3[nH]cc(C(=O)NC(C)(C)C)c3n2)c1	CDK4 with cyclin D	kinase activity, inhibitor, kinase panel		0.1 µM		inhibition	2% and -1%
COCC12C(=O)NC3C4(C(OC)CC1O)C1CC5(O)C(OC)C(O)C(OC(C)=O)(C1C5OC(=O)c1ccccc1)C3(O)C(OC)C24 (stereo not drawn)	CDK4 with cyclin D3	kinase activity, inhibitor, ProQinase kinase profiling		25 µM	reference: control	remaining activity	109% and 99%
Cc1cccc(O[C@H]2CCC[C@@H](C(C)CNCc3ccncc3)C2)c1 (relative stereo)	CDK4 with cyclin D	kinome profiling		10 µM		inhibition	0%
NC(=O)[C@@H](O)C[C@H]1CCc2sc3ncnc(O[C@H]4CC[C@H](N5CCOCC5)CC4)c3c21	CDK4 with cyclin D3	enzyme activity, inhibitor		10 µM		inhibition	10%
C=CC(=O)N1Cc2nc(-c3cc(-c4cc(Cl)cnc4Cl)c(F)cc3F)n(-c3ccncn3)c2C1	CDK4 with cyclin D3	cell-free assay, inhibitor		1 µM		inhibition	2%
CS(=O)(=O)Nc1cccc(-c2csc3cnc(Nc4ccc(N5CCN(CCCCCOc6cccc7c6C(=O)N(C6CCC(=O)NC6=O)C7=O)CC5)cc4)nc23)c1 (stereo not drawn)	CDK4 (Homo sapiens, UniProt P11802)	probe labelling, inhibitor, KiNativ chemoproteomics	MOLT-4	1 µM		inhibition	67.1%
CN1C[C@@H](c2c[nH]c3cc(Br)ccc23)NC[C@@H]1c1c[nH]c2cc(Br)ccc12	CDK4 with cyclin D2	enzyme activity, inhibitor		10 µM		remaining activity	95%

A few entries again:
SMILES	target	assay	test system	setting	scale	endpoint	value
CN1C[C@@H](c2c[nH]c3cc(Br)ccc23)NC[C@@H]1c1c[nH]c2cc(Br)ccc12	CDK4 with cyclin D2	enzyme activity, inhibitor		10 µM		remaining activity	95%
